Experimental data collected from several papers.
Lines come from different studies, so protocols differ. “And” joins repeats or separate records; there may be more than shown.
ADRA1B: Alpha-1B adrenergic receptor (ADRA1B, Homo sapiens, UniProt P35368)
UniProt P35368, sequence (whole entry, unmodified, looked up): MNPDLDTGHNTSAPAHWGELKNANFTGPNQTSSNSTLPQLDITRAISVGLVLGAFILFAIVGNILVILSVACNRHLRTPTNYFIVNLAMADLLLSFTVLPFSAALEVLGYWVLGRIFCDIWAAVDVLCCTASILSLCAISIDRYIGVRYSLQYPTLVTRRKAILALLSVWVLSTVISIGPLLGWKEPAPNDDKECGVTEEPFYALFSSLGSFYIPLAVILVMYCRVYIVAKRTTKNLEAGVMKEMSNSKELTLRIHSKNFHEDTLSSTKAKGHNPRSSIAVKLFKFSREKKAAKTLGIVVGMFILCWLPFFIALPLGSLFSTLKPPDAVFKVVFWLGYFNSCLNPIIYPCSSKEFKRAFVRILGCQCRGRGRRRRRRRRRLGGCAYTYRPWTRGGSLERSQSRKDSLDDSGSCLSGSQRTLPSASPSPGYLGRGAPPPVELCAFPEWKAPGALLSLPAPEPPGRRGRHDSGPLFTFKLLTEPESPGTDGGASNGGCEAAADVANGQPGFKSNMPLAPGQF
SLC6A3: Sodium-dependent dopamine transporter (SLC6A3, Homo sapiens, UniProt Q01959)
UniProt Q01959, sequence (whole entry, looked up): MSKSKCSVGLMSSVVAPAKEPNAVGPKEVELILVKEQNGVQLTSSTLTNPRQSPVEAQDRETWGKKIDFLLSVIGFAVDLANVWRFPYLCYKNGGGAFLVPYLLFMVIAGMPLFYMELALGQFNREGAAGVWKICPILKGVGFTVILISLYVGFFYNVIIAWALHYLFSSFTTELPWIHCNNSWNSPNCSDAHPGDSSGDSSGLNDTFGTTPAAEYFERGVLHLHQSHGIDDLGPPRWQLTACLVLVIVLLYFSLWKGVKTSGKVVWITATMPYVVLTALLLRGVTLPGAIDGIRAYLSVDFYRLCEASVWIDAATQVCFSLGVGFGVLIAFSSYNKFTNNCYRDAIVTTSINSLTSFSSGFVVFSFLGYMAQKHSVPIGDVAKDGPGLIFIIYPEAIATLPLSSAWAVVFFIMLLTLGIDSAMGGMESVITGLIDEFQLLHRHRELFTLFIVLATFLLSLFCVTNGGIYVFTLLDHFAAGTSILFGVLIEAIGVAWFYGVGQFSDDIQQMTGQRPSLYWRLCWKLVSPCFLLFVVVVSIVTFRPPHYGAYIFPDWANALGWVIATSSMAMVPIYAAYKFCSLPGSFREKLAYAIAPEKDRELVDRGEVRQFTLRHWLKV
HTR2B: 5-hydroxytryptamine receptor 2B (HTR2B, Homo sapiens, UniProt P41595)
UniProt P41595, sequence (whole entry, looked up): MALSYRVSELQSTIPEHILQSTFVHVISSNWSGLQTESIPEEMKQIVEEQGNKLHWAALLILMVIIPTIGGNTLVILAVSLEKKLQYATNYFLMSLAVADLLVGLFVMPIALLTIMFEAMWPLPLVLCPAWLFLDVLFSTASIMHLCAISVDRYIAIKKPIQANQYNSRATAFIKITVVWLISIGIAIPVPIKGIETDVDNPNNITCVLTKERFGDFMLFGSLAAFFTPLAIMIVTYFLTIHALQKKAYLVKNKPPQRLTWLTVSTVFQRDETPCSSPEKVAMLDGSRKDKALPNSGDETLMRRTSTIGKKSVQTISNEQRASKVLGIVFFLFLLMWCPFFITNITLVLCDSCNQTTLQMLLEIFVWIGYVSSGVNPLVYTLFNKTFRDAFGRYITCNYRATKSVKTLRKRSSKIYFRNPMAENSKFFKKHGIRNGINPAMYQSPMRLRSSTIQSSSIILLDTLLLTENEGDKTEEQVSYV
PLEKHA3: PLEKHA3 (Homo sapiens, UniProt Q9HB20)
UniProt Q9HB20, sequence (whole entry, looked up): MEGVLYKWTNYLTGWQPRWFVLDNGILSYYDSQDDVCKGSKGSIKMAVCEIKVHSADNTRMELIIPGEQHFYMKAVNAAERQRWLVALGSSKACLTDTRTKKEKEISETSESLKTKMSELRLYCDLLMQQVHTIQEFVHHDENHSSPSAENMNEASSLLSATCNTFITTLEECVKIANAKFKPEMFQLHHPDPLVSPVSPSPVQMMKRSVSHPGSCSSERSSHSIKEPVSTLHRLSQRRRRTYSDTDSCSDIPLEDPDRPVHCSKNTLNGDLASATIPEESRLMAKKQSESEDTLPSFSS
UniProt P08913, sequence (whole entry, looked up): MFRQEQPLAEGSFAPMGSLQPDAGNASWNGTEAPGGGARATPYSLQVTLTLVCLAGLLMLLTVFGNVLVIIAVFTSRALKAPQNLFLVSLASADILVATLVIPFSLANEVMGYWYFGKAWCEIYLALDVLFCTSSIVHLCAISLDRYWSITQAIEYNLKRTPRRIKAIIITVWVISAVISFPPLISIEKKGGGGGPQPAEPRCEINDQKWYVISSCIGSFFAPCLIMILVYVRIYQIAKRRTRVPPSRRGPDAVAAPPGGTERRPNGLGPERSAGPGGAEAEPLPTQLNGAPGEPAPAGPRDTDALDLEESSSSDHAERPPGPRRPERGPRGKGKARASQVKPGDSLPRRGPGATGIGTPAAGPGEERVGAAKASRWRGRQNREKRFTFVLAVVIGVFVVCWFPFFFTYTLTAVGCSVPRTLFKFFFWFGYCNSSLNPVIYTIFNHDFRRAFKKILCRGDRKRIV
UniProt P48039, sequence (whole entry, looked up): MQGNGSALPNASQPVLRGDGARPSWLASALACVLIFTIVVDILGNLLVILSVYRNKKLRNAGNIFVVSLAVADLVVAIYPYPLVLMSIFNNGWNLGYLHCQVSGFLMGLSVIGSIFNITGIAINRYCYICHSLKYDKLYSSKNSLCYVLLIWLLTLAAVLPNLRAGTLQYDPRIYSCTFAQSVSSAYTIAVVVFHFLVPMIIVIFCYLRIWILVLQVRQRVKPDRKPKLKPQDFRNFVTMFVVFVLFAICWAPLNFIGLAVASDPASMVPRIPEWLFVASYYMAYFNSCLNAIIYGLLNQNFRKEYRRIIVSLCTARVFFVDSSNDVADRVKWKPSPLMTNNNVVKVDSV
UniProt Q9BE39, sequence (whole entry, looked up): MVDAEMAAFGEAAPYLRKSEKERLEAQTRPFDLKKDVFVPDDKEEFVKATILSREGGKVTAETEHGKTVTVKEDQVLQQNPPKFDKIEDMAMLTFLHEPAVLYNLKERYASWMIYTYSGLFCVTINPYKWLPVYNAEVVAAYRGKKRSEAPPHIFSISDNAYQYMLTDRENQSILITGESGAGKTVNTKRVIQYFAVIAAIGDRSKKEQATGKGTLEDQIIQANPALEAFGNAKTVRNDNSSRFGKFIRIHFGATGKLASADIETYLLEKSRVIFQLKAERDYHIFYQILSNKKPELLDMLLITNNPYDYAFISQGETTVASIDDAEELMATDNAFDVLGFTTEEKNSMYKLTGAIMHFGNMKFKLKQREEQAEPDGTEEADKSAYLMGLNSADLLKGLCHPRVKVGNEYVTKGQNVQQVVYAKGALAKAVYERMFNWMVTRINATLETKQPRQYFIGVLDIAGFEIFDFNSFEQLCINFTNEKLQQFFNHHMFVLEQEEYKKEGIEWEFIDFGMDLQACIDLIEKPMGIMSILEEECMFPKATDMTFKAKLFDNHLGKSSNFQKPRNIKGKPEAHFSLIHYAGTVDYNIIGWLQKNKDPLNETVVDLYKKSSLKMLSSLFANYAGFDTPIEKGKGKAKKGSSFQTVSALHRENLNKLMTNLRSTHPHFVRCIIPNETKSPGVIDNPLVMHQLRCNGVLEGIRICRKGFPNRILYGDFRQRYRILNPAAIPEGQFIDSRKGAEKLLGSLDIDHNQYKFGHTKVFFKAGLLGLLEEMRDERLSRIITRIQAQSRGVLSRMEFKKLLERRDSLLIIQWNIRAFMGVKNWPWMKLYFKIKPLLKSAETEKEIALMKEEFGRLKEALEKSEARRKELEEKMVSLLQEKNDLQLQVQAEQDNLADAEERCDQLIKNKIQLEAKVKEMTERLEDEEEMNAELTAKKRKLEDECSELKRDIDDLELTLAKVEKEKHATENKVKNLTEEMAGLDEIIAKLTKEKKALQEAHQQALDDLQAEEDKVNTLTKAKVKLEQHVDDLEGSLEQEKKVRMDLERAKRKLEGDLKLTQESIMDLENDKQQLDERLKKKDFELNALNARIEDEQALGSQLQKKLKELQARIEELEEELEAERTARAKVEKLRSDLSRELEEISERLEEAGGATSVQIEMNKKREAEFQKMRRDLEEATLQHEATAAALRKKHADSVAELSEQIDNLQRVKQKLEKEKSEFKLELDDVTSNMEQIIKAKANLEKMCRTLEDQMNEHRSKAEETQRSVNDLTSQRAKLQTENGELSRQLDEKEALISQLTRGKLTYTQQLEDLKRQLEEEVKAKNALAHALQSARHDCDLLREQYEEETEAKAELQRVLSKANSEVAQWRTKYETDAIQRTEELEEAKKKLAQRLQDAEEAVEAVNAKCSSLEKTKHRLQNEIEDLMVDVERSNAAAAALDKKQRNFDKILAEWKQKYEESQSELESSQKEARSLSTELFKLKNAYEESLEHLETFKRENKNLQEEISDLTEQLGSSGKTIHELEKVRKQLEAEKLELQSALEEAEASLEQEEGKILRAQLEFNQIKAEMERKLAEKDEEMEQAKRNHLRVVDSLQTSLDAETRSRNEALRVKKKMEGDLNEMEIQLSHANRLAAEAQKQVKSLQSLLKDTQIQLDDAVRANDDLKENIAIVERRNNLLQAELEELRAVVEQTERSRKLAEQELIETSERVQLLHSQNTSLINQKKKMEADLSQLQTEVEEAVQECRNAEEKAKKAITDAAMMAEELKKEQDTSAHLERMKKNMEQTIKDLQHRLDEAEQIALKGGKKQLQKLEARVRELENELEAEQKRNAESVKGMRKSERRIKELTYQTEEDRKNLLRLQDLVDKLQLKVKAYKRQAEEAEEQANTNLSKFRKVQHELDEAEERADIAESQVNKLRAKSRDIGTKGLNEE

The Ki of COc1ccc(N2CCN(Cc3cccnc3Oc3ccc(-c4c(C)c(=O)[nH]c(=O)n4C)c(C)c3)CC2)cc1 is reported as 2910 nM (ADRA1B; ligand displacement, radioligand).
The Ki of OC[C@@]12C[C@@H]1[C@@H](n1cnc3c(NC(C4CCC4)C4CCC4)nc(C#Cc4ccc(Cl)s4)nc31)[C@H](O)[C@@H]2O is reported as 1100 nM (SLC6A3; ligand displacement, radioligand).
OC[C@@]12C[C@@H]1[C@@H](n1cnc3c(NC4CCCC4)nc(I)nc31)[C@H](O)[C@@H]2O gave a Ki of 28.1 nM (HTR2B; ligand displacement, radioligand).
The Ki of Clc1ccc(CNc2cccc(-c3nnc[nH]3)c2)c(Br)c1 is reported as 282 nM (MTNR1A (Homo sapiens, UniProt P48039); cell-free assay).
With Cc1cc(Oc2ncccc2CN2CCN(c3ccccc3O)CC2)ccc1-c1c(C)c(=O)[nH]c(=O)n1C the Ki was 1730 nM (ADRA1B; ligand displacement, radioligand).
CC(C)[C@@H](Nc1nc(I)nc2c1ncn2[C@H]1[C@H](O)[C@H](O)[C@]2(C#N)C[C@H]12)C1CC1 gave a Ki of 15.4 nM (HTR2B; ligand displacement, radioligand).
The Ki of CCOC(=O)c1cc(-c2ccc(OCC)cc2)oc1-c1ccc(Cl)cc1 is reported as 18000 nM (PLEKHA3; ligand displacement, FP).
With Cc1cc(Oc2ncccc2CN2CCN(c3ncccc3C(F)(F)F)CC2)ccc1-c1c(C)c(=O)[nH]c(=O)n1C the Ki was 3170 nM (ADRA1B; ligand displacement, radioligand).
For CCOc1ccc(C(=O)CC(SCc2ccc(Cl)cc2)C(=O)O)cc1 (centres unmarked), the Ki was 6090 nM (PLEKHA3; ligand displacement, FP).
For O=C1c2ccccc2N=C2N(c3ccccc3)CCC12O (centres unmarked), the Ki was 2600 nM (Myosin-7 (MYH7, Bos taurus, UniProt Q9BE39); ATPase activity, inhibitor).
For Cc1ccc2oc(=O)cc(NCCO)c2c1, the Ki was 17400 nM (ADRA1B; ligand displacement in cells).
CCOc1ccc(C(=O)CC(SCc2ccccc2)C(=O)O)cc1 (centres unmarked) has a Ki of 27200 nM (PLEKHA3; ligand displacement, FP).
COc1ccc(Cl)cc1N1CCN(Cc2cccnc2Oc2ccc(-c3c(C)c(=O)[nH]c(=O)n3C)c(C)c2)CC1 gave a Ki of 821 nM (ADRA1B; ligand displacement, radioligand).
N#C[C@@]12C[C@@H]1[C@@H](n1cnc3c(N[C@@H](C4CCC4)C4CC4)nc(I)nc31)[C@H](O)[C@@H]2O gave a Ki of 7.49 nM (HTR2B; ligand displacement, radioligand).
The Ki of Cc1cc(Oc2ncccc2CN2CCN(c3ccccc3Cl)CC2)ccc1-c1c(C)c(=O)[nH]c(=O)n1C is reported as 966 nM (ADRA1B; ligand displacement, radioligand).
The Ki of CCOC(=O)C12CC1C(n1ccc3c(NCCCc4ccccc4)nc(C#Cc4ccc(Cl)s4)nc31)C(O)C2O (centres unmarked) is reported as 5200 nM (SLC6A3; ligand displacement, radioligand).
COc1ccccc1N1CCN(Cc2cccnc2Oc2ccc(-c3c(C)c(=O)[nH]c(=O)n3C)c(C)c2)CC1 has a Ki of 33 nM and 33.5 nM (ADRA2A (Homo sapiens, UniProt P08913); ligand displacement, radioligand).
Cc1ccc2[nH]c(=O)c(CNC3CCCCC3)cc2c1 gave a Ki of 4570 nM (ADRA1B (Homo sapiens, UniProt P35368, V197I); ligand displacement in cells, flow cytometry).
Cn1cncc1[C@@](N)(c1ccc(Cl)cc1)c1ccc2c(c1)c(-c1cccc(Cl)c1)cc(=O)n2C has a Ki of 1150 nM (Cytochrome P450 2C8 (CYP2C8, Homo sapiens, UniProt P10632); enzyme activity, inhibitor; human, liver microsomes).
For CCOc1cccc(C(=O)CC(SCc2ccc(Cl)cc2)C(=O)O)c1 (centres unmarked), the Ki was 5340 nM (PLEKHA3; ligand displacement, FP).
O=C(NO)c1cncc(OS(=O)(=O)Oc2ccc3ccccc3c2)c1 gave a Ki of 340 nM (HDAC2 (Homo sapiens, UniProt Q92769); enzyme activity, inhibitor, fluorescence).
Cc1cc(Oc2ncccc2CN2CCN(c3ccccc3)CC2)ccc1-c1c(C)c(=O)[nH]c(=O)n1C has a Ki of 3000 nM (ADRA1B; ligand displacement, radioligand).
N#CC[C@@]12C[C@@H]1[C@@H](n1cnc3c(NC4CCCC4)nc(I)nc31)[C@H](O)[C@@H]2O gave a Ki of 6.79 nM (HTR2B; ligand displacement, radioligand).
